Results of several laboratories.
Lines come from different studies, so protocols differ. Values joined by “and” are separate records of one study, mostly repeats; a detail may differ. ± gives the spread as reported.

CSc1ccc2c(c1)C(N1CCN(C)CC1)Cc1ccccc1S2 (stereo not shown)
EC50 (HTR1E (Homo sapiens, UniProt P28566); G protein activation, agonist, BRET): 44.3 nM

COC(=O)CC(C)c1n[nH]c2nc(N)[nH]c(=O)c2c1=O (stereo not shown)
EC50 (folP (Bacteria, UniProt P0AC13); thermal stabilisation, lysate HiBiT CETSA; 63 °C, tested 0.01 to 200 µM): > 200000 nM

COc1cc(C2C(NC(=O)c3ccc(NC(=O)OC(C)(C)C)cc3)(C(=O)O)C(c3ccc(OC(=O)c4cccs4)c(OC)c3)C2(NC(=O)c2ccc(NC(=O)OC(C)(C)C)cc2)C(=O)O)ccc1OC(=O)c1cccs1 (stereo not shown)
EC50 (GLP1R (Homo sapiens, UniProt P43220, Y148A); cAMP, agonist): 155 nM

O=C(CNC(=O)c1ccc(Cl)cc1)NO
EC50 (Urease subunit alpha (ureC, Proteus mirabilis, UniProt P17086)): 69900 ± 400 nM

CC(C)(C(=O)N1CCC(Nc2nc3c(c(=O)[nH]2)CCCC3)CC1)c1ccc(Cl)cc1
EC50 (MRGPRD (Homo sapiens, UniProt Q8TDS7); miniGq recruitment, BRET1; HEK293T; wild type): 60 nM

CSCC[C@H](NC(=O)[C@H](CCCN=C(N)N)NC(=O)[C@H](Cc1ccc(O)cc1)NC(=O)[C@@H]1CCCN1C(=O)CNC(=O)[C@H](CCC(=O)O)NC(=O)[C@H](CC(=O)O)NC(=O)[C@H](CCCCN)NC(=O)[C@H](CCCCN)NC(=O)[C@H](CCC(=O)O)NC(=O)[C@H](C)N)C(=O)N[C@@H](CCC(=O)O)C(=O)N[C@@H](Cc1c[nH]cn1)C(=O)N[C@@H](Cc1ccccc1)C(=O)N[C@@H](CCCN=C(N)N)C(=O)N[C@@H](Cc1c[nH]c2ccccc12)C(=O)NCC(=O)N[C@@H](CO)C(=O)N1CCC[C@H]1C(=O)N1CCC[C@H]1C(=O)N[C@@H](CCCCN)C(=O)N[C@@H](CC(=O)O)C(=O)O
EC50 (MC3R (Homo sapiens, UniProt P41968); cAMP, agonist): 0.31 nM

CCc1cc(O)cc2c(/C=N/NC(=N)NCCc3ccc(Cl)cc3)c[nH]c12
EC50 (RXFP4 (Homo sapiens, UniProt Q8TDU9, V122S); agonist): 18.6 nM

Cn1c(=O)n(C2CCC(=O)NC2=O)c2ccc(C3CCN(CC(=O)Nc4cccc(CS(=O)(=O)N5CC[C@H](Nc6cccc(-c7sc(C(=O)O)c(OCC(=O)O)c7Cl)c6)CC5(C)C)c4)CC3)cc21 (stereo partly shown)
EC50 (PTPN1 (Homo sapiens, UniProt P18031); phosphatase activity; together with: DiFMUP substrate): 27.4 nM

CCCCCCCCCCCCCCCC(=O)OCC(CSC[C@H](N)C(=O)N[C@@H](CO)C(=O)N[C@@H](CCCCN)C(=O)N[C@@H](CCCCN)C(=O)N[C@@H](CCCCN)C(=O)N[C@@H](CCCCN)C(=O)O)OC(=O)CCCCCCCCCCCCCCC (stereo partly shown)
EC50 (TLR2/TLR6 (Homo sapiens, UniProt O60603+Q9Y2C9); reporter gene, agonist; HEK-Blue hTLR2/6 cells): 0.19 ± 0.028 nM

CC(CCC(=O)NCCS(=O)(=O)O)C1CCC2C3CCC4CC(OS(=O)(=O)O)CCC4(C)C3CCC12C (stereo not shown)
EC50 (GPR39 (Homo sapiens, UniProt O43194); calcium signal, agonist, fluorescence): 69400 nM

O=C(NC[C@@H](Cc1ccc(F)cc1)N1CCC(O)(C(F)(F)F)CC1)C1(c2ccc(Cl)cc2)CCCC1
EC50 (TRPA1 (Homo sapiens, UniProt O75762, I878A)): 77 nM

COc1ccc(C(=O)c2c(C(=O)NCCCN(C)C)oc3ccc(Cl)cc3c2=O)cc1OC
EC50 (GHSR (Homo sapiens, UniProt Q92847, A204E); beta-arrestin-2 recruitment, NanoBiT; HEK293T): 2690 nM

CC(C)Oc1cc(Cl)ccc1CNc1cc(-c2ccccc2)nc2ncnn12
EC50 (GPR3 (Homo sapiens, UniProt P46089, I200W); cAMP level, agonist, GloSensor; receptor I200W mutant): 2140 nM and 2750 nM and 4270 nM and 2040 nM

CCOC(=O)C12CC1C(n1cnc3c(NC)nc(C#Cc4ccc(F)s4)nc31)C(O)C2O (stereo not shown)
EC50 (SLC6A3 (Homo sapiens, UniProt Q01959); ligand displacement, radioligand): 120 nM

CSCC[C@H](NC(=O)[C@H](CC(C)C)NC(=O)CNC(=O)[C@H](Cc1ccccc1)NC(=O)[C@H](Cc1ccccc1)NC(=O)[C@@H](N)CCC(N)=O)C(N)=O
EC50 (TACR1 (Homo sapiens, UniProt P25103, H108A); agonist; concentration not given): 100 nM

COc1ccc(NC(=O)C2CC(C)CCC2C(C)C)cc1 (stereo not shown)
EC50 (TRPM8 (Homo sapiens, UniProt Q7Z2W7); ion current, agonist, automated patch clamp; HEK293T; holding potential 100 to -60 mV): 3630 nM

CN1CCN(C2=Nc3ccccc3Nc3ccccc32)CC1
EC50 (HTR1F (Homo sapiens, UniProt P30939); G protein activation, agonist, BRET): 195 nM

O=C(O)CCCCCC[C@H]1C(=O)NC(=O)N1CC[C@@H](O)C1CCCCC1
EC50 (PTGDR (Homo sapiens, UniProt Q13258); agonist): 0.912 nM

CNC(=O)C12CC1C(n1cnc3c(NC)nc(C#Cc4ccccc4Cl)nc31)C(O)C2O (stereo not shown)
EC50 (SLC6A2 (Homo sapiens, UniProt P23975); ligand displacement, radioligand): 9600 nM

Repeated from above:
CC(CCC(=O)NCCS(=O)(=O)O)C1CCC2C3CCC4CC(OS(=O)(=O)O)CCC4(C)C3CCC12C (stereo not shown)
EC50 (GPR39 (Homo sapiens, UniProt O43194); calcium signal, agonist, fluorescence): 69400 nM

O=C(NC[C@@H](Cc1ccc(F)cc1)N1CCC(O)(C(F)(F)F)CC1)C1(c2ccc(Cl)cc2)CCCC1
EC50 (TRPA1 (Homo sapiens, UniProt O75762, I878A)): 77 nM

COc1ccc(C(=O)c2c(C(=O)NCCCN(C)C)oc3ccc(Cl)cc3c2=O)cc1OC
EC50 (GHSR (Homo sapiens, UniProt Q92847, A204E); beta-arrestin-2 recruitment, NanoBiT; HEK293T): 2690 nM
